# Assay results from different studies.
# Each line is one published result; not all experiments were run side by side. ± marks the error that the study gave.
SMILES,test,system,conditions,logD
COC(=O)CN1CCN(Cc2cc(-c3nc4ccccc4s3)cc(OC)c2O)CCN(Cc2cc(-c3nc4ccccc4s3)cc(OC)c2O)CC1,fluorescence intensity,,,1.2 ± 0.1
CNC(=O)C[C@H](Cc1ccc(C#N)cc1)NC(=O)c1cc(-c2ccc(CN[C@H](C)c3ccc(C)cc3)o2)ccc1Cl,chromatographic HPLC,,pH 7.5,3.2
COc1cc2c(cc1O[11CH3])CCN(C(C)CCc1ccc(O)cc1)C2 (racemic),shake-flask,n-octanol/phosphate buffer,pH 7.4,1.34
Cl.N=C(N)c1ccc2cc(NS(=O)(=O)c3ccccc3)ccc2c1,,octanol/buffer,"67 µM, pH 7.4",-0.63
O=C(c1ccccc1)N1CCCCC1,shake-flask,1-octanol/water,,1.7
CCOC(=O)[C@@](CC)(CCCSCCOCCOCCNC(=O)OC(C)(C)C)NC(=O)c1ccc(C2CC2)c(Cc2ccc(F)cc2)n1,,,,2.5
CCC(=[NH+][Pt-2]1([Cl])([O]C(C)=O)([O]C(C)=O)[NH2+]CCC[NH2+]1)N(C)CCNc1c2ccccc2[nH+]c2ccccc12.O=[N+]([O-])[O-].O=[N+]([O-])[O-],shake-flask,1-octanol/0.9% NaCl,pH 5,-1.18 ± 0.03
CCOC(=O)C(CC)(CCCSCCOCCN)NC(=O)c1ccc(C2CC2)c(Cc2ccc(F)cc2)n1 (centres unmarked),,,,2.7
CCC(=[NH+][Pt-2]1([OH])([OH])([Cl])[NH2+]CCC[NH2+]1)N(C)CCNc1c2ccccc2[nH+]c2ccccc12.O=[N+]([O-])[O-].O=[N+]([O-])[O-],shake-flask,1-octanol/0.9% NaCl,pH 5,-1.24 ± 0.02
CC(C)(C)c1cc(-c2ccc3cc4ccccc4nc3n2)nc(-c2ccc3cc4ccccc4nc3n2)c1.Cc1ccncc1.[Cl-].[Cl-].[Ru+2].c1ccc2cc3nc4c5cccnc5c5ncccc5c4nc3cc2c1,,1-octanol/PBS,pH 7.4,0.813 ± 0.016
COc1cccc(OC)c1-c1cc(C(=O)NC2(C(=O)O)C3CC4CC(C3)CC2C4)nn1-c1ccc(C(=O)N(C)CCOCCOCCN(C)C(=O)[C@H](CCCCNC(=O)[C@H](CC(C)C)NC(=O)C2OC2C(=O)O)NC(=O)CN2CCN(CC(=O)[O-])CCN(CC(=O)[O-])CCN(CC(=O)[O-])CC2)cc1C(C)C.[177Lu+3] (mixture of isomers),,n-octanol/buffer,"pH 7.4, 177Lu-labelled",-2.14
CC1CN(C(C)CO)C(=O)c2cccc(N(C)C(=O)c3ccncc3)c2OC1CN(C)Cc1ccc(Oc2ccccc2)cc1 (centres unmarked),shake flask,1-octanol/phosphate buffer,pH 7.4,3.75
CNC(=O)C1CCCN(C(=O)C2CC3CCC2N3C(=O)[C@@H]2C[C@@H](O)CN2C(=O)NCc2cccc(Cl)c2F)C1 (mixture of isomers),"shake flask, octanol/buffer",,pH 7.4,0.59
O=C(CN1CN(c2cccc(F)c2)C2(CCN(C(=O)c3cnc4[nH]ncc4c3)CC2)C1=O)NCC(F)(F)F,,,pH 7.4,2.34
CCC(=[NH+][Pt-2]1([Cl])([O]C(=O)CC(C)C)([O]C(=O)CC(C)C)[NH2+]CCC[NH2+]1)N(C)CCNc1c2ccccc2[nH+]c2ccccc12.O=[N+]([O-])[O-].O=[N+]([O-])[O-],shake-flask,1-octanol/water,pH 7,-1.22 ± 0.08
COc1cc(-c2nc3ccccc3s2)cc(CN2CCNCCN(Cc3cc(-c4nc5ccccc5s4)cc(OC)c3O)CC2)c1O,fluorescence intensity,,,1.23 ± 0.04
N=C(N)c1ccc2cc(C(=O)Nc3ccc4c(c3)C(C3CCCCC3)=NCC4)ccc2c1.O=C(O)C(F)(F)F.O=C(O)C(F)(F)F,,octanol/buffer,"67 µM, pH 7.4",1.03
N#Cc1cccc(N2CN(CC(=O)NCC(F)(F)F)C(=O)C23CCN(C(=O)c2cnc4[nH]ncc4c2)CC3)c1,,,pH 7.4,1.88
COc1cc(-c2nc3ccccc3s2)cc(CN2CCN(Cc3cc(-c4nc5ccccc5s4)cc(OC)c3O)CCN(C(C)C)CC2)c1O,fluorescence intensity,,,1.3 ± 0.03
CCCCCCCC/C=C/CCCCCCCC(=O)[O][Pt-2]1([OH])([Cl])([NH+]=C(CC)N(C)CCNc2c3ccccc3[nH+]c3ccccc23)[NH2+]CCC[NH2+]1.O=[N+]([O-])[O-].O=[N+]([O-])[O-],shake-flask,1-octanol/0.9% NaCl,pH 5,0.98 ± 0.09
CN1CCc2ccc(/C=C/c3ccc4cc(C(=N)N)ccc4c3)cc2C1C1CCCCC1.O=C(O)C(F)(F)F.O=C(O)C(F)(F)F (centres unmarked),,octanol/buffer,"67 µM, pH 7.4",2.16
Cc1ccncc1.[Cl-].[Cl-].[Ru+2].c1cc(-c2ccc3cccnc3n2)nc(-c2ccc3cccnc3n2)c1.c1ccc2cc3nc4c5cccnc5c5ncccc5c4nc3cc2c1,,1-octanol/PBS,pH 7.4,-0.73 ± 0.007
N=C(N)c1ccc2cc(C(=O)Nc3ccccc3)cc(-c3cn[nH]c3)c2c1.O=C(O)C(F)(F)F,,octanol/buffer,"67 µM, pH 7.4",0.01
CCC(=[NH+][Pt-2]1([Cl])[NH2+]CCC[NH2+]1)N(C)CCNc1c2ccccc2[nH+]c2ccccc12.O=[N+]([O-])[O-].O=[N+]([O-])[O-] (centres unmarked),shake-flask,1-octanol/water,pH 7,-1.97 ± 0.09
N=C(N)NC(=O)c1nc(Cl)c(NCc2cc(Cl)cc(Cl)c2)nc1N.O=C(O)C(F)(F)F,,octanol/buffer,"67 µM, pH 7.4",1.94
O=C(CN1CN(c2ccccc2)C2(CCN(C(=O)c3ccc4[nH]ncc4n3)CC2)C1=O)NCC(F)(F)F,,,pH 7.4,2.11
COC(=O)Nc1cc(C(=O)Nc2ccccc2)cc2ccc(C(=N)N)cc12.O=CO,,octanol/buffer,"67 µM, pH 7.4",3.4
O=C(CN1CN(c2ccccc2)C2(CCN(C(=O)c3ccc4[nH]ncc4c3)CC2)C1=O)N(CCO)CC(F)(F)F,,,pH 7.4,2.5
CC(C)C1=NCCc2ccc(NC(=O)c3cc(Br)c4cc(C(=N)N)ccc4c3)cc21.O=C(O)C(F)(F)F.O=C(O)C(F)(F)F,,octanol/buffer,"67 µM, pH 7.4",1.24
COc1cccc(OC)c1-c1cc(C(=O)NC2(C(=O)O)C3CC4CC(C3)CC2C4)nn1-c1ccc(C(=O)N(C)CCOCCN(C)C(=O)[C@H](CCCCNC(=O)[C@H](CC(C)C)NC(=O)C2OC2C(=O)O)NC(=O)CN2CCN(CC(=O)[O-])CCN(CC(=O)[O-])CCN(CC(=O)[O-])CC2)cc1C(C)C.[177Lu+3] (mixture of isomers),,n-octanol/buffer,"pH 7.4, 177Lu-labelled",-2.14
Cc1nc(C)c(-c2ccnc(Nc3cccc(C#N)c3)n2)s1,,octanol/buffer,"67 µM, pH 7.4",4.16
Cn1ccc([C@H](CCO)Nc2nc(N3CCOCC3)c3cc(-c4ccccc4)sc3n2)n1,chromatographic,,,3.8

# Some of these lines once more:
SMILES,test,system,conditions,logD
CN1CCc2ccc(/C=C/c3ccc4cc(C(=N)N)ccc4c3)cc2C1C1CCCCC1.O=C(O)C(F)(F)F.O=C(O)C(F)(F)F (centres unmarked),,octanol/buffer,"67 µM, pH 7.4",2.16
Cc1ccncc1.[Cl-].[Cl-].[Ru+2].c1cc(-c2ccc3cccnc3n2)nc(-c2ccc3cccnc3n2)c1.c1ccc2cc3nc4c5cccnc5c5ncccc5c4nc3cc2c1,,1-octanol/PBS,pH 7.4,-0.73 ± 0.007
